Earlier results as cited in several papers.
Lines come from different studies, so protocols differ.
Chain of UniProt Q8IW41 (whole entry, looked up): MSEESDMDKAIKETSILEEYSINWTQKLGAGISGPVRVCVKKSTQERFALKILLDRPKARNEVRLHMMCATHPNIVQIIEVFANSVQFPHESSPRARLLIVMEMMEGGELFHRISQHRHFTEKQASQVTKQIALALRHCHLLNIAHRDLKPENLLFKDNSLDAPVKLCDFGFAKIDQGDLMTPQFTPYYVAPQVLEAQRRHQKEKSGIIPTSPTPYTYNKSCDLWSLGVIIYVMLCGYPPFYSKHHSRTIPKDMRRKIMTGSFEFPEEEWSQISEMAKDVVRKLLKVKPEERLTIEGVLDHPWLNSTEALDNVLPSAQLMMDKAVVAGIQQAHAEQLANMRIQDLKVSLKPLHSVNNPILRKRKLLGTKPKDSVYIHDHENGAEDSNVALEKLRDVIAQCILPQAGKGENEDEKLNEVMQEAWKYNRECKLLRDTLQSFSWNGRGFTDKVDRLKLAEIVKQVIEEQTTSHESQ

N#CCNC(=O)c1ccc(-c2ccnc(Nc3ccc(N4CCOCC4=O)cc3)n2)cc1 — inhibition (CYP2C8; enzyme activity, inhibitor; concentration not given): no inhibition
COC(=O)N[C@H](C(=O)N1CCC[C@H]1c1nc(-c2ccc3c(c2)O[C@@H](c2ccccc2)n2c-3cc3cc(-c4c[nH]c([C@@H]5CCCN5C(=O)[C@@H](NC(=O)OC)C(C)C)n4)ccc32)c[nH]1)C(C)C — IC50 (CYP2C8; inhibitor; human liver microsomes): > 100 µM
CNCc1cn(S(=O)(=O)c2cccc(F)c2)c(-c2ccc(F)cc2F)c1OC — IC50 (CYP2C8; enzyme activity, inhibitor): > 50 µM
CC1(C)S[C@@H]2[C@H](NC(=O)[C@H](N)c3ccccc3)C(=O)N2[C@H]1C(=O)O — MIC (Acinetobacter baumannii; clinical isolate RKI-No_12/16): > 16 µg/mL
N#CCNC(=O)c1ccc(-c2ccnc(Nc3ccc(N4CCOCC4)cc3)n2)cc1 — contribution to metabolism (CYP2C8; human hepatocytes): 19%
COc1cc(Cc2cnc(N)nc2N)cc(OC)c1OC — Ki (CYP2C8; inhibitor): 29 to 34 µM
CO[C@H]1/C=C/O[C@@]2(C)Oc3c(C)c(O)c4c(O)c(c(/C=N/N5CCN(C)CC5)c(O)c4c3C2=O)NC(=O)/C(C)=C\C=C\[C@H](C)[C@H](O)[C@@H](C)[C@@H](O)[C@@H](C)[C@H](OC(C)=O)[C@@H]1C — EC50 (CYP2C8; enzyme induction; Simcyp compound file): 0.3 µM
Cc1ccc(NC(=O)c2ccc(CN3CCN(C)CC3)cc2)cc1Nc1nc(-c2cccnc2)cs1 — IC50 (CYP2C8; reversible inhibitor): 4.12 µM
CO[C@H]1/C=C/O[C@@]2(C)Oc3c(C)c(O)c4c(O)c(c(/C=N/N5CCN(C)CC5)c(O)c4c3C2=O)NC(=O)/C(C)=C\C=C\[C@H](C)[C@H](O)[C@@H](C)[C@@H](O)[C@@H](C)[C@H](OC(C)=O)[C@@H]1C — EC50 (CYP2C8; inducer): 0.3 µM
CC(C)(CO)c1cc2cc(NC(=O)C3(c4ccc5c(c4)OC(F)(F)O5)CC3)c(F)cc2n1C[C@@H](O)CO — Ki (CYP2C8; inhibitor): 13 µM
Nc1cc(C(F)(F)F)c(-c2nc(N3CCOCC3)nc(N3CCOCC3)n2)cn1 — remaining activity (MAP kinase-activated protein kinase 5 (MAPKAPK5, Homo sapiens, UniProt Q8IW41); enzyme activity; 10 µM; reference: untreated): 89%
COC(=O)[C@H](c1ccccc1Cl)N1CCc2sccc2C1 — Ki (CYP2C8): 26.8 µM
Cc1nn(C)cc1S(=O)(=O)NC(=O)c1ccc(-n2ccc(OCC(C)(C)C(F)(F)F)n2)nc1N1C[C@@H](C)CC1(C)C — Ki (CYP2C8; inhibitor): 8.35 µM
C=C[C@@H]1C[C@]1(NC(=O)[C@@H]1C[C@@H]2CN1C(=O)[C@H](C(C)(C)C)NC(=O)O[C@@H]1C[C@H]1CCCCCc1nc3ccc(OC)cc3nc1O2)C(=O)NS(=O)(=O)C1CC1 — IC50 (CYP2C8; inhibitor; human liver microsomes): 6 µM
CNC(C)C1CCC(N)C(OC2C(N)CC(N)C(OC3OCC(C)(O)C(NC)C3O)C2O)O1 (stereo not drawn) — MIC (Acinetobacter baumannii; clinical isolate RKI-No_16/16): > 8 µg/mL

For quick reference, copied from above:
COC(=O)N[C@H](C(=O)N1CCC[C@H]1c1nc(-c2ccc3c(c2)O[C@@H](c2ccccc2)n2c-3cc3cc(-c4c[nH]c([C@@H]5CCCN5C(=O)[C@@H](NC(=O)OC)C(C)C)n4)ccc32)c[nH]1)C(C)C — IC50 (CYP2C8; inhibitor; human liver microsomes): > 100 µM
CNCc1cn(S(=O)(=O)c2cccc(F)c2)c(-c2ccc(F)cc2F)c1OC — IC50 (CYP2C8; enzyme activity, inhibitor): > 50 µM
